Measurements gathered from unrelated publications.
Each line is one published result; not all experiments were run side by side. Values joined by “and” are separate records of one study, mostly repeats; a detail may differ. ± gives the spread as reported.
PLG: Plasminogen (PLG, Homo sapiens, UniProt P00747)
FGFR1: Fibroblast growth factor receptor 1 (FGFR1, Homo sapiens, UniProt P11362)
Mycosin-1: Mycosin-1 (Mycolicibacterium thermoresistibile, UniProt G7CDQ2)
PTGS2: Prostaglandin G/H synthase 2 (PTGS2, Homo sapiens, UniProt P35354)
TMPRSS2: Transmembrane protease serine 2 (TMPRSS2, Homo sapiens, UniProt O15393)
TMPRSS11D: Transmembrane protease serine 11D (TMPRSS11D, Homo sapiens, UniProt O60235)
AGTR1: Type-1 angiotensin II receptor (AGTR1, Homo sapiens, UniProt P30556)
Trpv1: Transient receptor potential cation channel subfamily V member 1 (Trpv1, Rattus norvegicus, UniProt O35433)

`Cn1c2ccccc2c2cc(CNCCCn3ccnc3)ccc21` gave an inhibition of 13.4% (DRD2 (Homo sapiens, UniProt P14416); cell-free assay, inhibitor; 10 µM).
For `CC(C)c1ccc(C(=O)Nc2ccc(CN)cc2)c(O)c1`, the inhibition was over 70% (PLG; enzyme activity, inhibitor; 10 µM).
For `Cc1c(-c2c3c(N)n[nH]c(=O)c3nn2-c2ccccc2)oc2cccc(F)c12`, the inhibition was 11% (FGFR1; enzyme activity, inhibitor, ELISA; 0.1 µM).
The inhibition of `C/C(CC(=O)Nc1ccc([N+](=O)[O-])cc1)=N\NC(N)=O` is reported as 57.3% (Mycosin-1; protease activity, inhibitor, quenched fluorescent peptide; 150 µM, with: 20 µM fluorogenic peptide substrate; reference: DMSO control).
`Cc1c(-c2c3c(N)n[nH]c(=O)c3nn2-c2ccccc2)oc2c(F)cccc12` has an inhibition of 78.6% (FGFR1; enzyme activity, inhibitor, ELISA; 0.1 µM).
`CN(C)S(=O)(=O)c1cc(C(=O)O)ccc1NCCCCCCCC(F)(F)F` has an inhibition of 31.8 ± 5.4% (SLC12A2 (Homo sapiens, UniProt P55011); chloride influx; HEK293 transfected with SLC12A2; 10 µM; reference: DMSO).
`OC(c1ccc(Cl)c(C(F)(F)F)c1)c1c[nH]c2ncc(C(F)(F)F)cc12` (stereo not drawn) gave an inhibition of 17% (FGFR1; enzyme activity, inhibitor; 1 µM).
`CC(C)C1C=C2CCC3C(C)(C(=O)O)CCCC3(C)C2CC1` (stereo not drawn): inhibition “no effect” (RPA1 (Homo sapiens, UniProt P27694); ssDNA binding, EMSA; 200 µM).
For `COc1cccc(Nc2c(C(N)=O)cnc3c(C)cc(-c4ccc5cnn(C)c5c4)cc23)c1`, the inhibition was 84% and 83.7% (PDEB1 (Trypanosoma brucei, UniProt Q8WQX9); enzyme activity, inhibitor; 10 µM).
The inhibition of `OC(c1ccc(C(F)(F)F)cc1)c1c[nH]c2ncc(C(F)(F)F)cc12` (stereo not drawn) is reported as 14% (FGFR1; enzyme activity, inhibitor; 0.1 µM).
For `Cc1nn(CCO)c2ncc(C(=O)c3cc(Cl)ccc3O)cc12`, the inhibition was 38 ± 3% (Heat shock protein HSP 90-beta, N-terminal domain (HSP90AB1, Homo sapiens, UniProt P08238); binding, fluorescence polarization; 10 µM, with: FITC-geldanamycin).
For `NCCO[C@H]1[C@H](O)[C@@H](O)[C@@H]2O[C@@H]2[C@@H]1C(=O)O`, inhibition read “inactive” (Heparanase (HPSE, Homo sapiens, UniProt Q9Y251); inhibitor, competitive ABPP; human platelet lysate; up to 100 µM, 60 min, pH 5.0).
For `CCOC(=O)c1c(NC(=O)CCl)sc2c1CCC(c1ccccc1)C2` (stereo not drawn), the inhibition was 46.8% (LDHA (Homo sapiens, UniProt P00338); enzyme activity, inhibitor, fluorescence; 100 µg/mL).
`COc1cc2ncc3c(c2cc1-c1cnn(C)c1)n(-c1ccc(C#N)cc1F)c(=O)n3C` gave an inhibition of over 50% (CLK2; kinase activity, inhibitor; 1 µM).
With `FC(F)(F)c1ccc(Cc2c[nH]c3ncc(C(F)(F)F)cc23)cc1` the inhibition was 24% (FGFR1; enzyme activity, inhibitor; 0.1 µM).
For `O=C(c1ccncc1)N1N=C2/C(=C/c3ccc(Br)cc3)CCCC2C1c1ccc(Br)cc1` (stereo not drawn), the inhibition was 86.5% (PTGS2; enzyme activity; concentration not given).
The inhibition of `Cc1ccc(O)c(C(=O)Nc2ccc(CN)cc2)c1` is reported as 43.2% (TMPRSS2; enzyme activity, inhibitor, fluorescence; 10 µM).
`N=C(N)SCc1ccc(CSC(=N)N)cc1`: inhibition “inactive” (TDO2 (Homo sapiens, UniProt P48775); enzyme activity, inhibitor, biochemical; concentration not given).
`CC(N)c1ccccc1` (stereo not drawn): inhibition “no inhibition” (Krev interaction trapped protein 1, FERM domain (KRIT1, Homo sapiens, UniProt O00522); HEG1-KRIT1 FERM interaction, flow cytometry bead; concentration not given).
The inhibition of `COc1cc(OC)cc(C(O)c2c[nH]c3ncc(C(F)(F)F)cc23)c1` (stereo not drawn) is reported as 61% (FGFR1; enzyme activity, inhibitor; 0.1 µM).
The inhibition of `CNC(=O)c1ccccc1Oc1nc(Nc2cc(OC)c(OC)c(OC)c2)ncc1Br` is reported as 30 to 50% (MAP3K11 (Homo sapiens, UniProt Q16584); enzyme activity, inhibitor; 1 µM).
`COc1cccc(Cc2c[nH]c3ncc(C(F)(F)F)cc23)c1` has an inhibition of 91% (FGFR1; enzyme activity, inhibitor; 1 µM).
With `NCc1ccc(NC(=O)c2c[nH]c3ccccc3c2=O)cc1` the inhibition was under 20% (TMPRSS11D; enzyme activity, fluorogenic substrate; 10 µM, with: Boc-VPR-AMC).
With `CCCCOC(=O)NS(=O)(=O)c1sc(CC(C)C)cc1-c1cc(Cn2ccnc2)ccc1F` the inhibition was 16% (AGTR1; ligand displacement, radioligand; 10 µM, cell membranes).
For `NS(=O)(=O)c1ccc(/N=N/c2ccc(O)nc2O)cc1`, the inhibition was over 50% (Semaphorin-3C, with neuropilin-1 (SEMA3C, Homo sapiens, UniProt Q99985); SEMA3C binding, inhibitor; 25 µM, with: SEMA3C; reference: DMSO).
`NCc1ccc(NC(=O)c2cc3ccccc3[nH]2)cc1` gave an inhibition of under 20% (TMPRSS2; enzyme activity, inhibitor; 10 µM, with: Boc-QAR-AMC).
With `CCOC(=O)NS(=O)(=O)c1sc(CC(C)C)cc1-c1ccc2c(c1)CCN(C(=O)OC)C2` the inhibition was 15% (AGTR1; ligand displacement, radioligand; 10 µM, cell membranes).
`COc1cc(C(=O)NC2CCC(N3CCN(CC4CCC5(CCCC5)C4)CC3)CC2)c(F)cc1Nc1ncc2c(n1)N(C1CCCC1(F)F)CC(F)(F)C(=O)N2C` (stereo not drawn) has an inhibition of 0.9% (TYRO3 (Homo sapiens, UniProt Q06418); cell-free assay, TR-FRET; 10 µM).
`CCCCOC(=O)NS(=O)(=O)c1sc(CC(C)C)cc1-c1cccc(CN(CC)C(C)=O)c1` gave an inhibition of 22% (AGTR1; ligand displacement, radioligand; 10 µM, cell membranes).
`CC(=O)Oc1ccccc1C(=O)[O][Pt]([NH2])([NH2])([Cl])([Cl])[O]C(=O)C(Cl)Cl` has an inhibition of about 9% (PTGS2; enzyme activity, COX activity kit; PSN1; 1 µM, 24 h).
`O=C(CNc1ccc2ccccc2c1)N/N=C/c1cc(Br)c(O)c(Br)c1` has an inhibition of 98% (CFTR (Homo sapiens, UniProt P13569); apical Cl- current; FRT; 50 µM).
`CC(C)(C)CCN1C[C@@H]2[C@@H](CNC(=O)c3cc(Cl)cc(Cl)c3)[C@@H]2C1.Cl` — result for inhibition: “inhibited” (Voltage-dependent L-type calcium channel subunit alpha-1F, exon 47 deletion isoform (Homo sapiens, UniProt O60840); calcium current, whole-cell patch clamp; HEK-293T cells; 50 nM).
For `NCc1ccc(NC(=O)c2ncccc2O)cc1`, the inhibition was under 20% (TMPRSS2; enzyme activity, inhibitor; 10 µM, with: Boc-QAR-AMC).
`O=C(CSc1ccc(Cl)cc1)Nc1ccc2scnc2c1`: inhibition “inhibited” (Trpv1; capsaicin-activated current, inhibitor, two-electrode voltage clamp; Xenopus oocytes; 100 µM, with: capsaicin 1 µM).
For `C/C(=N\NC(=N)N)c1ccc(N)cc1`, the inhibition was 52.5% (Mycosin-1; protease activity, inhibitor, quenched fluorescent peptide; 150 µM, with: 20 µM fluorogenic peptide substrate; reference: DMSO control).
With `Oc1c(C(Nc2nc3ccccc3s2)c2cccc(OCc3ccccc3)c2)ccc2cccnc12` (stereo not drawn) the inhibition was 90.6% (Genome polyprotein, protease (Dengue virus type 2, UniProt P14340); enzyme activity, inhibitor, fluorescence; 25 µM).
For `OC(c1cccc(C(F)(F)F)c1)c1c[nH]c2ncc(C(F)(F)F)cc12` (stereo not drawn), the inhibition was 22% (FGFR1; enzyme activity, inhibitor; 0.1 µM).
With `COc1ccc2ccc(C(=O)Nc3ccc(CN)cc3)c(O)c2c1` the inhibition was under 20% (TMPRSS11D; enzyme activity, fluorogenic substrate; 10 µM, with: Boc-VPR-AMC).
With `CC(=O)c1cnc(N)nc1N1CC[C@H]1c1nn2ccc(Cl)c2c(=O)n1-c1ccccc1` the inhibition was 152% (GABA-A receptor Cl- channel rat; radioligand binding; rat brain cortex homogenate; 10 µM, with: [3H]TBPS).
For `FC(F)(F)Oc1cccc(Cc2c[nH]c3ncc(C(F)(F)F)cc23)c1`, the inhibition was 21% (FGFR1; enzyme activity, inhibitor; 1 µM).
For `Cc1cc(O)c(C=O)c2c1C(=O)Oc1c(CO)c(O)c3c(c1O2)C(O)OC3=O` (stereo not drawn), the inhibition was 85.3% (PDE5A (Homo sapiens, UniProt O76074); enzyme activity, inhibitor; 10 µg/mL).
For `Cc1ccc(-c2cc(C(=O)Nc3ccc(S(=O)(=O)Nc4ncccn4)cc3)c3ccccc3n2)c(C)c1`, the inhibition was 10.2% (PPIA (Homo sapiens, UniProt P62937); enzyme activity, inhibitor; 10 µM).
`CCCCC(C)Sc1nc2c([nH]1)c(=S)n(C)c(=O)n2C` (stereo not drawn): inhibition “inactive” (Androgen receptor (AR, Homo sapiens, UniProt P10275); reporter gene; HeLa-A6; 10 µM, with: dihydrotestosterone).
`Cc1ccc(C(=O)Nc2ccc(CN)cc2)c(O)c1` gave an inhibition of over 70% (PLG; enzyme activity, inhibitor; 10 µM).
For `Cc1cc2c(NC(=O)N[C@@H]3CC(C)(C)Oc4cc(C(F)(F)F)ccc43)cccc2cn1`, the inhibition was 20.1 ± 8.5% (Trpv1; acid-evoked calcium influx, antagonist; HEK293, rat; 11.25 µM, pH 5).
For `CCCCOC(=O)NS(=O)(=O)c1sc(CC(C)C)cc1-c1cc(Cn2ccnc2)ccc1C`, the inhibition was 12% (AGTR1; ligand displacement, radioligand; 10 µM, cell membranes).
The inhibition of `NCc1ccc(NC(=O)c2cc(Br)ccc2O)cc1` is reported as under 20% (TMPRSS11D; enzyme activity, fluorogenic substrate; 10 µM, with: Boc-VPR-AMC).
`Cc1nc2ccc(Cc3c[nH]c4ncc(C(F)(F)F)cc34)cc2o1` has an inhibition of 76% (FGFR1; enzyme activity, inhibitor; 1 µM).

For quick reference, copied from above:
`Cc1c(-c2c3c(N)n[nH]c(=O)c3nn2-c2ccccc2)oc2c(F)cccc12` has an inhibition of 78.6% (FGFR1; enzyme activity, inhibitor, ELISA; 0.1 µM).
`CN(C)S(=O)(=O)c1cc(C(=O)O)ccc1NCCCCCCCC(F)(F)F` has an inhibition of 31.8 ± 5.4% (SLC12A2 (Homo sapiens, UniProt P55011); chloride influx; HEK293 transfected with SLC12A2; 10 µM; reference: DMSO).
`OC(c1ccc(Cl)c(C(F)(F)F)c1)c1c[nH]c2ncc(C(F)(F)F)cc12` (stereo not drawn) gave an inhibition of 17% (FGFR1; enzyme activity, inhibitor; 1 µM).
`CC(C)C1C=C2CCC3C(C)(C(=O)O)CCCC3(C)C2CC1` (stereo not drawn): inhibition “no effect” (RPA1 (Homo sapiens, UniProt P27694); ssDNA binding, EMSA; 200 µM).
For `COc1cccc(Nc2c(C(N)=O)cnc3c(C)cc(-c4ccc5cnn(C)c5c4)cc23)c1`, the inhibition was 84% and 83.7% (PDEB1 (Trypanosoma brucei, UniProt Q8WQX9); enzyme activity, inhibitor; 10 µM).
